Assay results collected from several papers.
Each line is one published result; not all experiments were run side by side. Numbers after ± are the reported error.
Organism: Salmonella typhimurium

Structure (SMILES)	assay	test system	conditions	how to read	endpoint	result
COCCN(CCOC)N=O	mutagenicity, Ames plate incorporation	TA1537	50 µg/plate, 3 d, without S9, methanol	–	revertant colonies per plate	9.7 ± 3
Fc1ccc(C2=CCNCC2)cc1	SOS/umu test	TA1535/pSK1002	0.008 mg/mL, 4 h, with S9, full range	–	survival	99.6%
CN(N=O)c1ccc(F)cc1	mutagenicity, Ames plate incorporation	TA1537	150 µg/plate, 3 d, without S9, methanol	–	revertant colonies per plate	9 ± 3
CC(=O)N1CCC(C(=O)N2CCN3C(=O)c4cc(-c5ccccc5)ccc4NC(=O)C3C2)CC1 (stereo not drawn)	–	TA100	5000 µg/plate, without S9	–	revertants per plate	90
O=[N+]([O-])c1ccc(NC2CCNCC2)c(C(F)(F)F)c1	SOS/umu test	TA1535/pSK1002	0.063 mg/mL, 4 h, with S9, full range	–	survival	99.3%
O=NN1CCN(C2CCCC2)CC1	mutagenicity, Ames plate incorporation	TA100	50 µg/plate, 3 d, without S9, methanol	–	revertant colonies per plate	134 ± 18
COc1cccc(-c2n[nH]c(SCc3ccccn3)n2)c1OC	Ames test, preincubation	TA1537	0.031 mg/plate, with rat liver S9	–	revertant colonies per plate	14
Cc1cc(C(=O)NC(C)(C)COc2cccc3c2C(N)=NS(=O)(=O)N3)cc(C)n1	Ames test, confirmatory	TA1535	1000 µg/plate	relative to: solvent control	revertant ratio	1.1
O=[N+]([O-])c1ccc(N2CCN(CCC(O)c3ccc(F)cc3)CC2)c(C(F)(F)F)c1 (stereo not drawn)	SOS/umu test	TA1535/pSK1002	0.125 mg/mL, 4 h, without S9, lower range	–	survival	57%
N#C[C@@]1(n2ccc(N)nc2=O)O[C@H](CO)[C@@H](O)[C@H]1O	–	TA100	100 µM, without S9	relative to: control	viability	87%
CC(C)N(C)N=O	mutagenicity, Ames plate incorporation	TA98	500 µg/plate, 3 d, without S9, methanol	–	revertant colonies per plate	25.3 ± 5
O=[N+]([O-])c1ccc(N2CCC(NCCC(O)c3ccc(F)c4ccccc34)CC2)c(C(F)(F)F)c1 (stereo not drawn)	SOS/umu test	TA1535/pSK1002	0.008 mg/mL, 4 h, with S9, full range	–	survival	73.5%
